Results from different studies.
Protocols differ between the studies behind these lines. “And” joins repeats or separate records; there may be more than shown. ± gives the spread as reported.
IDE: Insulin-degrading enzyme (IDE, Homo sapiens, UniProt P14735)

Structure (SMILES) | tested on | test | system | conditions | how to read | quantity | value
Cc1c(C(=O)O)ccc2c3n(nc12)[C@@H]1[C@H](C3)N(CC2CC2)[C@@]2(C(=O)Nc3cc(Cl)ccc32)[C@H]1c1cccc(Cl)c1F | – | – | female BALB/c nude mice, plasma | oral, 1 mg/kg twice daily, 9 h, SJSA-1 tumour-bearing | – | plasma concentration | 1160 nM and 1480 nM and 1510 nM and 1520 nM
C[C@@H](Nc1cc(F)cc(F)c1)c1cc(C(=O)N(C)C)cc2c(=O)cc(N3CCOCC3)oc12 | – | – | advanced solid tumour patients | oral, 120 mg twice daily, continuous monotherapy | – | any dose interruption | 40%
Cc1ccc([C@@H]2O[C@H](CO)[C@@H](O)[C@H](O)[C@H]2O)cc1Cc1ccc(-c2ccc(F)cc2)s1 | – | – | Japanese type 2 diabetes patients | 100 mg, day 1, 24 h urine collection | baseline: baseline | urinary chloride excretion change | 48.7 mEq
CC[C@H](C)[C@H](NC(=O)[C@H](Cc1ccccc1)NC(=O)[C@H](CCC(=O)O)NC(=O)[C@H](CCCCNC(=O)COCCOCCNC(=O)COCCOCCNC(=O)CC[C@H](NC(=O)CCCCCCCCCCCCCCCCC(=O)O)C(=O)O)NC(=O)[C@H](C)NC(=O)[C@H](C)NC(=O)[C@H](CCC(N)=O)NC(=O)CNC(=O)[C@H](CCC(=O)O)NC(=O)[C@H](CC(C)C)NC(=O)[C@H](Cc1ccc(O)cc1)NC(=O)[C@H](CO)NC(=O)[C@H](CO)NC(=O)[C@@H](NC(=O)[C@H](CC(=O)O)NC(=O)[C@H](CO)NC(=O)[C@@H](NC(=O)[C@H](Cc1ccccc1)NC(=O)[C@@H](NC(=O)CNC(=O)[C@H](CCC(=O)O)NC(=O)C(C)(C)NC(=O)[C@@H](N)Cc1cnc[nH]1)[C@@H](C)O)[C@@H](C)O)C(C)C)C(=O)N[C@@H](C)C(=O)N[C@@H](Cc1c[nH]c2ccccc12)C(=O)N[C@@H](CC(C)C)C(=O)N[C@H](C(=O)N[C@@H](CCCNC(=N)N)C(=O)NCC(=O)N[C@@H](CCCNC(=N)N)C(=O)NCC(=O)O)C(C)C | – | 12-lead Holter ECG | healthy humans | subcutaneous, 1.5 mg once weekly, 48 h, steady state | baseline: placebo | QTcB change from baseline | 11.1 ms
CCn1cc(C(=O)N2CCOCC2)c(=O)c2cc(NC3Cc4ccccc4C3)cnc21 | – | – | human, fed | oral suspension, 1200 mg/day twice daily, day 1, median | – | Tmax | 3 h
Cc1ccc(Sc2ccccc2N2CCNCC2)c(C)c1 | – | measured: Somnolence | healthy adult men | oral, 10 mg daily, 12 days | – | participants with TEAE | 0%
Cc1cccc(CNC(=O)c2cn(CCNC(=O)c3ccccc3S)c3cc4c(cc3c2=O)OC(F)(F)O4)n1 | – | – | Sprague-Dawley rat, male, whole blood | intramuscular, 10 mg/kg of parent compound | – | AUC(0-t) | 4810 ± 2220 ng·h/mL
Cc1ccc2nc(-c3ccccc3)c(CNc3cccc(C(F)(F)F)c3)n2c1 | – | – | peritoneal macrophages, Swiss mice | 5 days, 5% fetal calf serum | – | CC50 | > 63100 nM
CC[C@H](C)CCCCC(=O)N[C@@H](CCN)C(=O)N[C@H](C(=O)N[C@@H](CCN)C(=O)N[C@H]1CCNC(=O)[C@H]([C@@H](C)O)NC(=O)[C@H](CCN)NC(=O)[C@H](CCN)NC(=O)[C@H](CC(C)C)NC(=O)[C@@H](Cc2ccccc2)NC(=O)[C@H](CCN)NC1=O)[C@@H](C)O | – | – | mild renal impairment | intravenous infusion, 0.75 mg/kg single dose over 1 h, arithmetic mean | – | clearance | 35 mL/min
CS(=O)(=O)c1ccc(-c2nc3ccccc3n2CC(=O)N/N=C/c2ccc(Cl)cc2)cc1 | – | – | rat, stomach | concentration not given, 4 h | – | ulcer number | 1
COc1ccnc(C(N)=O)c1O | – | aerobic dark soil incubation | silt loam soil | 20 °C, persistence endpoint | – | DT50 | 8.9 days
COc1cccc(-c2n[nH]c(SCc3ccccn3)n2)c1OC | – | – | Sprague-Dawley rats, both sexes | oral dietary, 30 mg/kg/day, day 7, 3 h | – | plasma concentration | 762 ng/mL
N#Cc1ccc2c(c1)[C@H]1CCCN(C(=O)c3ccc4[nH]cnc4c3)[C@H]1C2 | – | – | human males | 40 mg, end of trial | – | SHBG level | 43.1 nmol/L
CCc1nc(C(N)=O)c(Nc2ccc(N3CCC(N4CCN(C)CC4)CC3)c(OC)c2)nc1NC1CCOCC1 | – | – | Japanese patients, plasma and urine | oral, 200 mg, cycle 1 day 28, multiple doses, median | – | renal clearance | 19.7 mL/min
Nc1nccc2c1ncn2[C@@H]1C=C(CO)[C@@H](O)[C@H]1O | HBL-1 | – | – | 1 µM, 120 h | – | viability | 50.1%
CNC(=O)c1cc(Oc2ccc(NC(=O)Nc3cc(C(C)(C)C)nn3-c3ccc4ncccc4c3)c(F)c2)ccn1 | – | measured: worst grade 3 | human | oral, dose not given, cycles 1 and 2, High AUC(0-4 h) subgroup | – | patients with any AE of special interest | 28%
NC(=O)N1c2ccccc2C=Cc2ccccc21 | – | – | healthy human subjects | oral, dose not given, compound alone | – | headache incidence | 27%
CCc1cc2c(cc1CC)CC(NC[C@H](O)c1ccc(O)c3[nH]c(=O)ccc13)C2 | – | equilibrium dialysis | rat, plasma | – | – | fraction unbound | 0.078
O=C(O)CCCOc1ccc([18F])cc1-c1cc(-c2ccccc2C(F)(F)F)n(-c2ccccc2)n1 | – | gamma counting | male ddY mice, heart | intravenous, 2.1 MBq, 5 min | – | radioactivity uptake | 7.05 ± 0.94 SUV
C=CC[C@@H]1/C=C(\C)C[C@H](C)C[C@H](OC)[C@H]2O[C@@](O)(C(=O)C(=O)N3CCCC[C@H]3C(=O)O[C@H](/C(C)=C/[C@@H]3CC[C@@H](O)[C@H](OC)C3)[C@H](C)[C@@H](O)CC1=O)[C@H](C)C[C@@H]2OC | – | – | Wistar Kyoto rat, male, plasma | ip, 0.5 mg/kg/day, day 28, at sacrifice | – | plasma urea level | 6.2 ± 0.6 mmol/L
CNC(=O)c1ccc(-c2cnc3ncc(Cc4ccc5ncccc5c4)n3n2)cc1F | – | – | human severe hepatic impairment | oral, 200 mg single dose, adjusted geometric mean | – | unbound AUC(0-t) | 323 ng·h/mL
COc1cc2c(cc1OC)C(=O)C(CC1CCN(Cc3ccccc3)CC1)C2 (stereo not drawn) | – | – | human subjects | unit not given | baseline: placebo | LSEQ awake following sleep | 3.29
CN1CCC[C@H](CN2c3ccccc3Sc3ccccc32)C1.Cl | – | – | Wistar rat female, lung | oral, 16 mg/kg | – | AUC(0-t) | 243000 ng·h/mL
Cc1cccc(-c2ccc([C@@H]3[C@@H](CO)N4CCCCN(S(=O)(=O)N5CCN(C)CC5)C[C@@H]34)cc2)c1C | IDE | enzyme activity, inhibitor, fluorescence kinetic | – | together with: Mca-RPPGFSAFK(Dnp)-OH substrate | – | EC50 | 32 nM

Structure (SMILES) | tested on | test | system | conditions | how to read | quantity | value
CCCOc1ccc(NC(=O)CN2CCN(C)CC2)cc1-c1nc(CC)c(CC)c(=O)[nH]1 | – | – | healthy Chinese men | 10 mg, together with: placebo alcohol | – | head discomfort incidence | 26.7%
C[C@@H]1CCO[C@H]2Cn3cc(C(=O)NCc4ccc(F)cc4F)c(=O)c(O)c3C(=O)N12 | – | – | human paediatric patients, weight sample B to under sample C kg, plasma | oral, 30 mg dispersible tablet, 24 h, steady state, geometric mean, population PK post-hoc, N 5 | – | trough concentration (C24) | 1100 ng/mL
O=C(Nc1c2c(cc3c1CCC3)CCC2)NS(=O)(=O)/C=C/c1nccs1 | – | – | human liver microsomes | 1 µM, 30 min, together with: NADPH | – | metabolized fraction | 23.8%
CO[C@H]1C[C@@H]2CC[C@@H](C)[C@@](O)(O2)C(=O)C(=O)N2CCCC[C@H]2C(=O)O[C@H]([C@H](C)C[C@@H]2CC[C@@H](O)[C@H](OC)C2)CC(=O)[C@H](C)/C=C(\C)[C@@H](O)[C@@H](OC)C(=O)[C@H](C)C[C@H](C)/C=C/C=C/C=C/1C | – | – | healthy adult horses | intravenous, 0.06 mg/kg, 1 h | – | heart rate | 35 ± 3.3 beats/min
CCc1nc(C(N)=O)c(Nc2ccc(N3CCC(N4CCN(C)CC4)CC3)c(OC)c2)nc1NC1CCOCC1 | – | – | processed mouse plasma | 425 ng/mL, 24 h, 4 °C | – | re-injection stability accuracy | 102%
C[C@H]1Oc2cc(cnc2N)-c2c(nn(C)c2C#N)CN(C)C(=O)c2ccc(F)cc21 | – | population PK | patients with severe renal impairment, plasma | oral, 100 mg, mean, single dose | – | clearance | 80.2 mL/min
CCOc1c([C@H](C)n2nc(C)c3c(N)ncnc32)cc(Cl)c(F)c1[C@@H]1CNC(=O)C1 | – | ECG | previously treated B-cell malignancy patients | oral, 15 mg once daily, baseline QTcF ≤450 ms | – | observations QTcF >450 ≤480 ms | 0%
C[C@@H]1CN(CC(=O)N2CC(C)(C)c3nc(CO)c(Cc4ccc(F)cc4)cc32)[C@@H](CN2CCOC[C@H]2C)CN1 | – | – | male Sprague Dawley rats, bile duct cannulated, bile | intravenous, 5 mg/kg, 24 h | baseline: dose | unchanged drug excreted | 6%
CC(C)(C(=O)N1CCOc2c(C#N)cncc2C1)C(F)F | – | measured: vascular disorders | healthy humans, both sexes | oral, 10 mg single dose | – | subjects with TEAE | 0%
CCc1c(-c2ccccc2)c(-c2ccccc2)nn1-c1ccccc1-c1cccc(OCC(=O)O)c1 | – | – | Sprague-Dawley rat | oral, dose not given | – | Clast | 2.64 ng/mL and 1.53 ng/mL and 1.1 ng/mL
CC(C)(C)OC[C@@H]1C(=O)NCCN1C(=O)C[C@H](N)Cc1cc(F)c(F)cc1F | – | measured: infections and infestations | healthy Korean men | oral, dose not given | – | number of TEAEs | 2
O=C(COc1ccc(Cl)cc1)NC12CC(c3nnc([C@H]4C[C@@H](OC(F)(F)F)C4)o3)(C1)C2 | – | – | human both sexes | oral, 45 mg once daily, 14 days | – | participants with TEAE | 100%
O=C(Nc1nc2cccc(-c3ccc(CN4CCS(=O)(=O)CC4)cc3)n2n1)C1CC1 | – | measured: constipation | human rheumatoid arthritis patients | oral, 75 mg once daily, 4 weeks, regardless of relatedness | – | treatment-emergent adverse events | 0%
COc1ccnc(C(=O)NC(CO)C(=O)O)c1O (racemic) | – | – | Staffordshire loam sediment, aerobic dark | 20 °C | – | DT50 water | 4.86 days
C=CC(=O)Nc1cc(Nc2nccc(-c3cn(C)c4ccccc34)n2)c(OC)cc1N(C)CCN(C)C | – | storage stability | human plasma samples | 30 d, -80 °C, LLOQ level | baseline: nominal concentration | percentage recovery | 14.4%
CCN1CCN(Cc2ccc(NC(=O)c3ccc(C)c(NC(=O)c4cncc(-c5cccs5)c4)c3)cc2C(F)(F)F)CC1 | – | LC-MS/MS | C57BL/6 mouse, plasma | intraperitoneal, 20 mg/kg single dose, 0.25 h | – | mean plasma concentration | 614 ng/mL
CNC(=O)c1ccc(-c2cnc3ncc(Cc4ccc5ncccc5c4)n3n2)cc1F | – | – | healthy human subjects | oral, dose not given, all grades, all causality, together with: rifampicin | baseline: subjects | headache incidence | 11.5%
Cc1cc(NC2CCN(C(=O)OC3CCN(C(=O)/C=C/CN(C)C)C3)CC2)n2ncc(C(C)C)c2n1 (stereo not drawn) | – | Phase I dose escalation CTCAE v4.0, measured: Headache | patients with advanced solid tumours | dose not given, TIW dosing any grade | – | patients with adverse event | 9%
CNC(=O)c1ccc(-c2cnc3ncc(Cc4ccc5ncccc5c4)n3n2)cc1F | – | – | Japanese patients | oral, 400 mg, any grade | – | γGT increased patients | 5%
COc1ccnc(C(=O)O)c1O | – | aerobic soil incubation | soil | worst-case terminal value, for exposure modelling | – | DT50 | 1000 days
Nc1ncnc2c1ncn2[C@@H]1O[C@H](C[C@@H](N)CC[C@H](N)C(=O)O)[C@@H](O)[C@H]1O | HBL-1 | – | – | 1 µM, 120 h | – | viability | 102%
Cc1nc2ccc(OCc3ccc(C(F)(F)F)cc3)cc2[nH]1 | – | – | Balb/c mouse, male, kidney | intravenous, 1 mg/kg, 3 h | baseline: tissue over plasma | tissue/plasma ratio | 8.4 ± 1.2
Cc1ccccc1-c1ccc([C@H]2[C@@H](CO)N3C(=O)CN(C(=O)Nc4ccc(F)cc4)C[C@H]23)cc1 | IDE | enzyme activity, inhibitor, fluorogenic kinetic | – | together with: Mca-RPPGFSAFK(Dnp)-OH substrate | – | EC50 | 470 nM
CC(C)n1c(Nc2cccnc2)nc2cnc(Nc3ccc(N4CCN(C)CC4)cc3)nc21 | – | measured: alanine aminotransferase increased | healthy male subjects | oral, 100 mg, study, together with: itraconazole | – | subjects with adverse event | 7.1%

Some of these lines once more:
Structure (SMILES) | tested on | test | system | conditions | how to read | quantity | value
CN1CCC[C@H](CN2c3ccccc3Sc3ccccc32)C1.Cl | – | – | Wistar rat female, lung | oral, 16 mg/kg | – | AUC(0-t) | 243000 ng·h/mL
Cc1nc2ccc(OCc3ccc(C(F)(F)F)cc3)cc2[nH]1 | – | – | Balb/c mouse, male, kidney | intravenous, 1 mg/kg, 3 h | baseline: tissue over plasma | tissue/plasma ratio | 8.4 ± 1.2
CCOc1c([C@H](C)n2nc(C)c3c(N)ncnc32)cc(Cl)c(F)c1[C@@H]1CNC(=O)C1 | – | ECG | previously treated B-cell malignancy patients | oral, 15 mg once daily, baseline QTcF ≤450 ms | – | observations QTcF >450 ≤480 ms | 0%
CNC(=O)c1ccc(-c2cnc3ncc(Cc4ccc5ncccc5c4)n3n2)cc1F | – | – | healthy human subjects | oral, dose not given, all grades, all causality, together with: rifampicin | baseline: subjects | headache incidence | 11.5%
